Published values pooled from the literature.
A part holds a random share of what one study measured. Positions count from the first letter of the parent shown.

Set 1 — method: DHFR PCA, deep sequencing; sample: yeast; added: (+)-ABA 2500 µM; reference: wild-type fitted maximum; direction: higher = stronger binding; quantity: relative binding score
Target: ABI1, truncated, D143A, DHFR fusion (Arabidopsis thaliana)
Setting: methotrexate growth selection, single substitutions
Starting sequence: PYL1, truncated, DHFR fusion (Arabidopsis thaliana); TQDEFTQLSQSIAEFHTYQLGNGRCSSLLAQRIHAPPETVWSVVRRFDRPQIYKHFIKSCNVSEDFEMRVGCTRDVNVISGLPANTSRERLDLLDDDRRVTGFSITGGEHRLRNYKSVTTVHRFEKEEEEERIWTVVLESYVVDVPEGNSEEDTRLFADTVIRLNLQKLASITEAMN
S140A: 44.7%
E4R: 93.9%
R163E: 90.1%
K58Y: 92.4%
S104M: 83.1%
R45T: 73.5%
H110T: 91.3%
A170S: 94.5%
N61K: 102%
R99S: 93.4%
C60K: 31.5%
F56R: 18.3%

Set 2 — target: UBE2V2 UBC core domain (UniProt Q15819); method: yeast two-hybrid; sample: yeast; setting: mostly zero background; reference: not given; direction: higher = stronger interaction; quantity: lacZ reporter activity
B1: RNF149 RING domain (UniProt Q8NC42); chain EKGIDVDAENCAVCIENFKVKDIIRILPCKHIFHRICIDPWLLDHRTCPMCKLDVIKALGYW
B2: PHF7 RING domain (UniProt Q9BWX1); chain IQHGHVGEESCILCCEDLSQQSVENIQSPCCSQAIYHRKCIQKYAHTSAKHFFKCPQCNNRKEFPQEML
B3: RNF43 RING domain (UniProt Q68DV7); chain SGSSCSSAPVCAICLEEFSEGQELRVISCLHEFHRNCVDPWLHQHRTCPLCMFNITEGDSFS
B4: PEX2 RING domain (UniProt P28328); chain DNTLATSGKECALCGEWPTMPHTIGCEHIFCYFCAKSSFLFDVYFTCPKCGTEVHSLQPLK
Residues (chain): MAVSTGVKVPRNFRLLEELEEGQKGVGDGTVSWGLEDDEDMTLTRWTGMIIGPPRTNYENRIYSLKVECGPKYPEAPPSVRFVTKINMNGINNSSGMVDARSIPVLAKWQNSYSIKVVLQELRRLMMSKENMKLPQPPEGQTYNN
QLQDEEDDSLCRICMDAVIDCVLLECGHMVTCTKCGKRMSECPICRQYVVRAVHVF (RNF34 RING domain (UniProt Q969K3)): 0
MANWVFCNRCFQPPHRTSCFSLTNCGHVYCDACLGKGKKNECLICKAPCRTVLLSK (RNF212 RING domain (UniProt Q495C1)): 0
B1 (RNF149 RING domain): 0
KRQCSDVDDICSICQAEFQKPILLICQHIFCEECMTLWFNREKTCPLCRTVISDHINKW (RNFT1 RING domain (UniProt Q5M7Z0)): 0
SYEDKSNDFVCPICFDMIEEAYMTKCGHSFCYKCIHQSLEDNNRCPKCNYVVDNIDHLY (COP1 RING domain (UniProt Q8NHY2)): 0
B2 (PHF7 RING domain): 0
B3 (RNF43 RING domain): 0
B4 (PEX2 RING domain): 0

Set 3 — method: universal PBM; molecule type: double-stranded DNA, one strand shown; sample: in vitro; tested at: 600 nM; direction: higher = stronger binding; quantity: E-score
Target: Sal-like protein 4, full length isoform A (SALL4, Homo sapiens, UniProt Q9UJQ4, residues 1-1053)
Chain of UniProt Q9UJQ4 (whole entry, looked up): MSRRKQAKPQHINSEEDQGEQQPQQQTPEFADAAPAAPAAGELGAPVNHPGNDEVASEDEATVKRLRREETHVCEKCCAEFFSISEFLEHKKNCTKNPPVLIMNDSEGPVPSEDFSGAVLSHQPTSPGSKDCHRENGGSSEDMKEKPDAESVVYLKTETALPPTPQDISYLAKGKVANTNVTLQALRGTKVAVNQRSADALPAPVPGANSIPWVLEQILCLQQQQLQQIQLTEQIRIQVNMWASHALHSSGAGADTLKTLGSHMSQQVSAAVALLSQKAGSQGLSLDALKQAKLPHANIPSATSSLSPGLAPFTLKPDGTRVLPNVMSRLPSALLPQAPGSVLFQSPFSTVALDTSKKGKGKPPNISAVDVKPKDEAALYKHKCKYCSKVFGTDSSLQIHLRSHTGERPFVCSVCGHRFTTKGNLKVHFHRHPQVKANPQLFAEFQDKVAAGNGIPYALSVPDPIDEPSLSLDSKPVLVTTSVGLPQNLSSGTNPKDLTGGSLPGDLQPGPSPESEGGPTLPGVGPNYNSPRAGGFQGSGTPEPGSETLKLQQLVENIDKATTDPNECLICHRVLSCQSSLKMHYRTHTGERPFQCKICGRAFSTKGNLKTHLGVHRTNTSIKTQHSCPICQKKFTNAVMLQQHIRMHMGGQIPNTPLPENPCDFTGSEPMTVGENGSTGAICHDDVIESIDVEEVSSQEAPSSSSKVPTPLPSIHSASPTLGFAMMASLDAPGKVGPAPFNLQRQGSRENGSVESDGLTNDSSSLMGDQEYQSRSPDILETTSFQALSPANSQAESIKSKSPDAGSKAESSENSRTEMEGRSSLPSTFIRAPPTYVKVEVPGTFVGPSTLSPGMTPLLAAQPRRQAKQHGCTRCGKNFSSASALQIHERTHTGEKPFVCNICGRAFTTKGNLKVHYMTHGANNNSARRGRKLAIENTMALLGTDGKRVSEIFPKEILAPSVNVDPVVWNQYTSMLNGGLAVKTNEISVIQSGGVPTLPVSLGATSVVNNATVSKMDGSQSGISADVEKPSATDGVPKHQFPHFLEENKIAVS
Setting: 8-mer, flanks averaged, mean of replicates
ACCAACGC: -0.103
ATTTACAG: 0.237
GCGTCCCA: -0.348
CTGAATCA: 0.132
CGACGCTC: -0.0605
ACAGCGTA: -0.133
CCCGTACC: -0.294
CTAATAAC: 0.344
ACCTAAAC: -0.0273
CAGATTGC: 0.0577
ATCAGATG: 0.00272
AGAAACTG: -0.0818
ACCTACTG: -0.000915
ATACGGAC: 0.0178
AGGAGCCA: -0.207
CTTGCTCC: 0.0169
AGATTGCT: 0.0795
CGTGCAAC: -0.113
CGTGTACA: 0.0515
AGGCCGGG: -0.296
GCCAGCCA: -0.225
CTGCTTGA: -0.139
GACCACAC: -0.141
CTGGAGCA: -0.146
AACACGTT: 0.0886

Set 4 — target: CCNE1, cyclin fold, Cln2 fusion (human); method: yeast growth competition, sequencing; sample: yeast; setting: strong parent motif; reference: not given; direction: higher = stronger binding; quantity: normalised enrichment score
Starting sequence: CDKN1B docking peptide (human); PSACRNLFGPVDH; partner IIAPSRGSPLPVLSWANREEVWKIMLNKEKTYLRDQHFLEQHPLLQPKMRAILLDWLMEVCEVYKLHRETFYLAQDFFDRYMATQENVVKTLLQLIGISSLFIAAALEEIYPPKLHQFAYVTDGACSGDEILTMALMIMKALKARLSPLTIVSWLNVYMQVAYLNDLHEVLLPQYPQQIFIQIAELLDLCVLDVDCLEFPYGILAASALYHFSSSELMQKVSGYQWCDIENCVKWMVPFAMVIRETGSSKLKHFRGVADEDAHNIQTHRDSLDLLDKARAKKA
R5W: 0.292
P10D: 3.23
N6Y: 0.3
P1Y: 3.03
P10N: 3.65
P1Q: 3.75
N6G: 0.0773
H13W: 4.3
A3T: 1.25
H13T: 2.88
P1V: 3.56
R5V: 0.768
P1W: 3.02
A3D: 0.124
A3C: 3.96

Set 5 — method: RNA Bind-n-Seq; molecule type: RNA; sample: in vitro; tested at: 200 nM; setting: whole 134-nt RNA, ends assumed; added: 150 mM KCl; reference: input library; direction: higher = stronger binding; quantity: log2 enrichment
Target: Fragile X messenger ribonucleoprotein 1, C-terminal low-complexity region (Fmr1, Mus musculus, UniProt P35922)
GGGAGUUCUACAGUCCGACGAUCCAAGUCCUGUGCUACACAUCGUAUGUACCGAAUCGGGUUUGGGGUUUGGGUUUGGGAAAGUAUUAUGUUACGCCGUUCGGAUCUGCACUUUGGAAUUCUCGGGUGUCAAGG: 0.915
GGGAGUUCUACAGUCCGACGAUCUGGGAGGUGGAUUUUGUUUUUUUUUUUAGCUCAUUUCCAGGGGUGGGAAUUUUUUUUUAAUAUGUGUCAUGAAUAAAGUUGUUUUUGAAAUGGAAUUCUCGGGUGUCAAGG: 0.31
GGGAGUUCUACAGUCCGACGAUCUAACUUUAGAGGAGGAUCUGAUGGAUAUGGCAGUGGACGUGGAUUUGGGGAUGGCUAUAAUGGGUAUGAAGGAGGACCUGGAGGUGGCAAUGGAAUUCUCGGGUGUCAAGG: 0.18
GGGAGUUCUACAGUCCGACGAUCAGUCCUGUGCUACACAUCGUAUGUACCGAAUCGGGGAAAAAGGGGUGGGGUUUGGGGAAAGUAUUAUGUUACGCCGUUCGGAUCUGCACUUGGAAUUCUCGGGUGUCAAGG: 0.651
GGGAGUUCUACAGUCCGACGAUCCCUCAAGUCCUGUGCUACACAUCGUAUGUACCGAAUCGGGGUGGGGUGGUGGGAAAGUAUUAUGUUACGCCGUUCGGAUCUGCACUUCCAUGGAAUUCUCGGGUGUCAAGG: 1.22
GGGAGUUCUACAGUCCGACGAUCUGGCCCUGGUGGCAUGCGGGGAGGAAGAGGUGGCCUCAUGGAUCGUGGUGGUCCCGGUGGAUUGUUCAGAGGUGGCCGUGGUGGAGACAGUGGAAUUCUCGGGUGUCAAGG: 0.0944
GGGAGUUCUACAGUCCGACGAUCACCAUGCAGGUGGGCAUCUUUGGGAAGUGGGGCAAGGGGGGGAUAGGGGGGGGGGUAACACUUUGGGAACAGGUGGUCCCAGGUCGUUUCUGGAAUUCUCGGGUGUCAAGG: 1.08
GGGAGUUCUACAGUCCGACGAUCACCAUGCAGGUGGGCAUCUUUGGGAAGUGGGGCAAGGGGGGGAUAGGGAGGGGGGUCACACUUUGGGAACAGGUGGUCCCAGGUCGUUUCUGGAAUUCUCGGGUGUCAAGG: 1.11
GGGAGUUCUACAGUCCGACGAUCAGUUACGGUAGCAGUUCUCAGAGCAGCAGCUAUGGGCAGCCCCAGAGUGGGAGCUACAGCCAGCAGCCUAGCUAUGGUGGACAGCAGCAAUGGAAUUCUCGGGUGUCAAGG: -1.21
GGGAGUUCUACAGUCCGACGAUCGCAGGAAGUAAAAACAAAUGGAACUGCUUCGGAUAGUGGCAGGGGUGGGGGUUGCUAAGGAAAGGGUGGGAUGGGAGUGGGUAAAGAGUUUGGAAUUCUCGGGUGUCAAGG: 0.0601

Some of these lines once more (set 3):
CTGAATCA: 0.132
CGACGCTC: -0.0605
ACAGCGTA: -0.133
CCCGTACC: -0.294
